Published values collected from several papers.
Parts stem from different laboratories: compare values within a part only. Substitutions count along the parent as printed.

Series 1
Target: Interferon regulatory factor 7, full length, phosphomimetic (IRF7, Homo sapiens, UniProt Q92985, residues 1-503, S471D/S472D/S475D/S476D/S477D/S483D/S484D/S487D)
Sequence of UniProt Q92985 (whole entry, unmodified, looked up): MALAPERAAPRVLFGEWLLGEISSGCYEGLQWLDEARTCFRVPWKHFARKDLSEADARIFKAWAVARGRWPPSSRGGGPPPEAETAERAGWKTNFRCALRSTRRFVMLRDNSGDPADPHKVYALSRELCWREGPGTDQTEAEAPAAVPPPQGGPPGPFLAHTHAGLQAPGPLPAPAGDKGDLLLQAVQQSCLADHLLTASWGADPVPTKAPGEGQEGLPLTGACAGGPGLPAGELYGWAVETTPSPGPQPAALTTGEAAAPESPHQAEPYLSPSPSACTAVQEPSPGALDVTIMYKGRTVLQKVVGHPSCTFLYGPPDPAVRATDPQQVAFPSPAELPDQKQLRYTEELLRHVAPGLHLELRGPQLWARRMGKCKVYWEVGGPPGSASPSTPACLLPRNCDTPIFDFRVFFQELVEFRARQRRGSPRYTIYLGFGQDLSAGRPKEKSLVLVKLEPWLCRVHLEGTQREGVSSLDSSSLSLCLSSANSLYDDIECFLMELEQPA
Method: protein-binding microarray
Molecule type: double-stranded DNA, one strand shown
Matrix: in vitro
Concentration: 2200 nM top
Notes: 60-bp whole probe
Added: salmon DNA 0.4 mg/ml
Reference: random background probes
Reading: higher = stronger binding
Constant ends, left off below: GCCTAGCAC … GTCTTGATTCGCTTGACGCTGCTG
Sequence	fitted relative affinity
TGGCTTTCCTTTATGTCCTGGTGCTAG	1.67 z-score
CAACCTTTGTTTTTTTCTATGTGCTAG	1.57 z-score
TCAGTTTTTGCTTTCCTACTGTGCTAG	4.65 z-score
CAACCTATAGGTTCAACGACGTGCTAG	0.163 z-score
TTAGAAGTGAGTATCGATTAGTGCTAG	-0.359 z-score
ATAGATTTCAGTCTCGATTAGTGCTAG	1.09 z-score
GACGATCTCAGTCTCGAGACGTGCTAG	0.388 z-score
GACGGACTGGGTCTCTGGACGTGCTAG	-0.898 z-score
TCAAAAATGGCTTTGCAACTGTGCTAG	-0.65 z-score
TCATTTTTCTGCTTAGAACTGTGCTAG	2.84 z-score
GACGGTTTCGACCCTGGGGACGTGCTA	2.64 z-score
TCTGGGCCTCCATCATCTGTGTGCTAG	-0.394 z-score
TGTTACATTTATATCTTTGCGTGCTAG	1.15 z-score
GAGGGTTTCGGGACTGGGGACGTGCTA	1.47 z-score
TTAGGTTTCGGTATCGTTTAGTGCTAG	7.3 z-score
TTAGGTTACGACTATCGGTTAGTGCTA	0.418 z-score
TTAGGTATAGGGTTTCGGTTAGTGCTA	2.57 z-score
TTAAGTTTCGGGACTGGGTTAGTGCTA	4.21 z-score
TTAGATATCAGTATCGATCAGTGCTAG	0.0665 z-score
GACCGACTGGGTCTCGGGACGTGCTAG	-0.545 z-score
TTAGGTCTCCATTTCCTTTAGTGCTAG	1.56 z-score
TTAGGTATCGGGTTTCGGATAGTGCTA	2.14 z-score
TTTCATTGCTGCCCTCAGAAAGTGCTA	2.89 z-score
TTAGGACTGGGGATTCGGTTAGTGCTA	0.0795 z-score
GACGGTTTCGACTATCGCGACGTGCTA	3.41 z-score

Series 2
Target: Sal-like protein 4, full length isoform A (SALL4, Homo sapiens, UniProt Q9UJQ4, residues 1-1053)
Sequence of UniProt Q9UJQ4 (whole entry, looked up): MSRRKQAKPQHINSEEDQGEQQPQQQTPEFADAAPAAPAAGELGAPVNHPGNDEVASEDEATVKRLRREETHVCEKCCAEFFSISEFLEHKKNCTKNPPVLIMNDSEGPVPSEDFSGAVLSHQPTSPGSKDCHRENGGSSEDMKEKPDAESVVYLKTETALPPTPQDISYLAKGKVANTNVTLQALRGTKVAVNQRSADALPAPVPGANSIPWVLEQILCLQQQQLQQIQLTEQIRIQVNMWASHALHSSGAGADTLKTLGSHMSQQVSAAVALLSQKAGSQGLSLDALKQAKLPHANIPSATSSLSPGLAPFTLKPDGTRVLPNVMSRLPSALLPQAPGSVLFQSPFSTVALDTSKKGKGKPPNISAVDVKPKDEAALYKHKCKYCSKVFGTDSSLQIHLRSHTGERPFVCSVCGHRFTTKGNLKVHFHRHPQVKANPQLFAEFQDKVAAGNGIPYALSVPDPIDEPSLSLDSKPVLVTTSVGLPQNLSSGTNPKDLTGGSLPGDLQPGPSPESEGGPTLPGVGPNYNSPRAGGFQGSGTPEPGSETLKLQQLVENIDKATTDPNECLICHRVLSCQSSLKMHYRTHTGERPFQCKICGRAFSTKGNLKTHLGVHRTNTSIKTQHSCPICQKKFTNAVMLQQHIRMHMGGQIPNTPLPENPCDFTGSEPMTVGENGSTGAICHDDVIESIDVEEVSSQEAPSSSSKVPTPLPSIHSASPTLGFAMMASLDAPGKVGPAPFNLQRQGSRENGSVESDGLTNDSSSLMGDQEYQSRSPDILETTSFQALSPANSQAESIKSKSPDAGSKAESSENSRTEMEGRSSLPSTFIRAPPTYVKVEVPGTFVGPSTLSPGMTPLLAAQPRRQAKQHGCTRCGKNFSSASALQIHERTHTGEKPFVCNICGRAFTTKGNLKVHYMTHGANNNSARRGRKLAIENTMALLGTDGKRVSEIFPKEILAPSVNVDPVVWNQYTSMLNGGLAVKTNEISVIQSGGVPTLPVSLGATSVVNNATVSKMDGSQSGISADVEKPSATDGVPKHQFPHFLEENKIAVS
Method: universal PBM
Molecule type: double-stranded DNA, one strand shown
Matrix: in vitro
Concentration: 600 nM
Notes: 8-mer, flanks averaged, mean of replicates
Reading: higher = stronger binding
Sequence	E-score
AGCTACAA	0.0212
CGGGTACG	-0.342
TAGAGCCA	-0.0665
AAATTTGC	0.22
AAGCATAG	0.0292
ATCTCAAG	0.0689
CACTACAA	0.163
AGATTGCC	-0.175
CATGTTGG	0.0584
AGTTTGGC	-0.13
AGTGCCGG	-0.364
CAGGGCGG	-0.287
GGCTCCCC	-0.362
ACACGAAT	0.152
CACCCCCA	-0.166
ACGGAATA	0.125
AGTATAGG	0.137
CAGTGTAG	0.0307
CACTGATC	-0.0919
ACGGGACG	-0.287
GAAGTGTC	-0.0539
AGCTTAGG	-0.131
ATCTTAAG	0.124
ATTAGGAC	0.242
TCCTACCA	-0.205

Series 3
Target: Phosphate system positive regulatory protein PHO4, full length, GST-tagged (PHO4, Saccharomyces cerevisiae, UniProt P07270, residues 1-312)
Method: competition protein-binding microarray
Molecule type: double-stranded DNA, one strand shown
Matrix: in vitro
Concentration: 2 µM
Notes: whole 60-bp probe, lowest competitor level
Added: Cbf1 competitor, 0.05 µM
Reading: higher = stronger binding
Constant ends, left off below: … GTCTTGATTCGCTTGACGCTGCTG
Residues (chain): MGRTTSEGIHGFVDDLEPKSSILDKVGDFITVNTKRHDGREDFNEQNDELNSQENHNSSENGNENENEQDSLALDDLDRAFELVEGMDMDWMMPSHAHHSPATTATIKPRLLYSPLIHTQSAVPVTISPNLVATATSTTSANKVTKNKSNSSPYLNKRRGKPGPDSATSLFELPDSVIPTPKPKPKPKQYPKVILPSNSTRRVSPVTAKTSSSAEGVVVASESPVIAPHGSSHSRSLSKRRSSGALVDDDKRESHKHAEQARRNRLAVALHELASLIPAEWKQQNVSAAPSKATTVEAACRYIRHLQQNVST
Sequence	fluorescence intensity [a.u.]
CGGGGTTAAGTTTTTCACGTGGGCTGCTTGCAGCAG	12800
TGGTTCAGACTGGATCAGGCAATCAGCGAACAAATG	2880
CATACCCAACCTTGTTTGGTGGGTGAAGATATTTGT	3480
CAGGAGAACTTGCATCATGTGGTGTTCTTCCGAGAT	8940
TTTCCTGTTGTGGGTCATATGACTTTGAACCAAATG	3600
AAAGCGGTAATTTGGCCTGTGGGTGCAGATATCTAT	4210
CATACCCAACCTTGTCACGTGTTTTAAGATATTTGT	17900
TTATCAAGAAACCGTCACAGAAGGAGCTCACTCTGG	2690
GGGGTTAAGGTCTGGCACGATGGTAAGACGATGAGG	12100
TTTTTGTAGAATGTACGCGTGATGGCAGTGCCCTGC	7500
TGAGTACTATGTTATCAGGTGCTGCTGTTATGGATG	5960
CTTGACCACTTATTTCACGGGCTCCGTAGCGGACAA	4190
AGTGCAGTGGAAAAGCACGCTTACTCTACGGATGAG	7530
ACACCATCGCATACCCACGTGGCCGCTTCGTTTGCC	18600
ACAACCATCTATGATGACGTGTTGACATTATCAAAC	6280
GGCTAAAACGAAGCCATCGTGCAAAATGGTAAGTTC	9420
CTTCTGTAAATTTGCTGCGTGGGTGGACGCGCCCCG	7790
CCGGAACAACCTTGGTGCATGACAGAACGTAGACCA	5060
CTTTCCCGATCTTGCGGAGTGGGTGTAGCACATTTG	4550

Series 4
Target: Histone acetyltransferase KAT6A, both winged helices, GST fusion (KAT6A, Homo sapiens, UniProt Q92794, residues 1-181)
Method: protein binding microarray
Molecule type: double-stranded DNA, one strand shown
Matrix: in vitro
Concentration: not given
Notes: 8-mer, flanks averaged, mean of 2 arrays, mostly near background
Reference: not given
Reading: higher = stronger binding
Residues (chain): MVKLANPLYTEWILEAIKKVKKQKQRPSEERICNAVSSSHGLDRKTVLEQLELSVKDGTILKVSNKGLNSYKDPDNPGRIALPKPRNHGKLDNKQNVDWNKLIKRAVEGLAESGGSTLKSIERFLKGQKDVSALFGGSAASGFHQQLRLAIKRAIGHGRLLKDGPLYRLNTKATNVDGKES
Sequence	E-score
CGGATATC	0.202
CCGGATCC	0.107
GGTCAAAC	0.0846
AATGCCGA	0.239
ATAGCAAC	-0.188
ATCGTGTC	0.217
AGCAGGCG	-0.00456
CCACGGAG	0.148
CAAGAGTA	-0.175
CATTGTGC	0.0485
CTAAACTA	-0.172
ACGTCTGC	0.083
CTGTGAGC	0.0466
ATATTGTC	-0.0111
AGTCGAGA	-0.104
GTAGAATA	-0.108
GCTGCGAA	-0.00158
CAGTGTGA	-0.233
CAGCGCAG	0.275
TATTGTAA	0.00746
AGTAGATC	-0.162
GTTTTATA	-0.0197
CCATTAAG	-0.106
GAGCAAGA	-0.0989

Series 5
Target: CCNA2, cyclin fold, Cln2 fusion (human)
Method: yeast growth competition, sequencing
Matrix: yeast
Notes: strong parent motif
Reference: not given
Reading: higher = stronger binding
Starting sequence: GMNC docking peptide (human); KNAKRNLSSEFAN; partner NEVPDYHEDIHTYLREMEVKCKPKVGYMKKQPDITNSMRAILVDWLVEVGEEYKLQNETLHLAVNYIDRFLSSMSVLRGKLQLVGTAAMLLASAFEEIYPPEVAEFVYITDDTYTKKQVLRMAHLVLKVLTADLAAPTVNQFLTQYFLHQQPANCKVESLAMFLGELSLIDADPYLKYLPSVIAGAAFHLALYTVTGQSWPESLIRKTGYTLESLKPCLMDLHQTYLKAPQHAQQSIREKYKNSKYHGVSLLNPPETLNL
Substitution	normalised enrichment score
A12N	5.63
A12T	5.11
N6K	2.81
K4V	4.8
N6F	0.215
F11L	2.82
S9F	5.65
L7Q	0.421
A3S	3.44
R5H	0.551
S8M	6.58
L7S	0.0553
E10N	0.986
S9R	6.26
K4R	6.1
N2L	4.36
A12P	2.37
E10G	1.13
N2G	6.07
L7V	0.441
N6A	2.79
S8T	4.48
S9H	5.33
A3Y	4.06
R5N	0.432
